{"data": "Assay results from different studies", "note": "Each line is one published result; not all experiments were run side by side. ± marks the error that the study gave."}
{"SMILES": "CN1CCC(N[C@@H]2CCc3[nH]c4c(C(N)=O)ccc(-c5ccccc5Cl)c4c3C2)CC1", "tested on": "A-375", "assay": "cell growth or viability", "measurement": "IC50", "result": "0.0231 µM"}
{"SMILES": "COc1ccc(C(O)=CC(=O)c2ccc(C(C)(C)C)cc2)cc1.[Ru+2].c1ccc(-c2ccnc3c2ccc2c(-c4ccccc4)ccnc23)cc1.c1ccc(-c2ccnc3c2ccc2c(-c4ccccc4)ccnc23)cc1", "tested on": "HL-60", "assay": "phototoxicity", "conditions": "light over 450 nm, 29.1 J/cm2", "measurement": "IC50", "result": "2.63 µM"}
{"SMILES": "CC[C@H](C)[C@H](NC(=O)C[C@H](CCCCN)NC(=O)[C@H](Cc1ccccc1)NC(=O)C[C@H](CC(C)C)NC(=O)CN)C(=O)N[C@H](C(=O)N[C@@H](CCCCN)CC(=O)N[C@@H](CCCCN)C(=O)N[C@H](CC(=O)N[C@@H](C)C(=O)N[C@@H](CCCCN)CC(=O)N[C@@H](CO)C(=O)N[C@@H](Cc1ccccc1)C(N)=O)[C@@H](C)CC)[C@@H](C)CC", "tested on": "NIH 3T3", "assay": "cytotoxicity", "measurement": "IC50", "result": "> 128 µg/mL"}
{"SMILES": "CCOc1cncc(-c2ccc(NC(=O)C3(c4ccnc(NS(=O)(=O)C5CC5)n4)CCOCC3)nc2)n1", "tested on": "DLD-1", "assay": "cell growth or viability, ATP luminescence", "conditions": "72 h", "measurement": "IC50", "result": "10 µM"}
{"SMILES": "C=CC(=O)N1CC2C(=O)N(CCN(C)C)c3c(c4cc(Cl)c(-c5c(O)cccc5F)nc4n(-c4c(C)ccnc4C(C)C)c3=O)N2CC1C (centres unmarked)", "tested on": "NCI-H1373 (KRAS G12C)", "assay": "cell proliferation, inhibitor", "measurement": "IC50", "result": "0.0306 ± 0.0138 µM"}
{"SMILES": "CCN(C(=O)c1cc(F)ccc1Oc1nncnc1N1CCC2(C1)CN(C(CCCN(C)CCOC)C(C)C)C2)C(C)C (centres unmarked)", "tested on": "MOLM-14", "assay": "QuantiGene, refers to: MEIS1 mRNA", "measurement": "IC50", "result": "1.37 ± 0.073 µM"}
{"SMILES": "CC[C@H](C)[C@H](NC(=O)C[C@H](CCCCN)NC(=O)[C@H](CCCCN)NC(=O)C[C@@H](NC(=O)[C@@H](NC(=O)C[C@H](CCCCN)NC(=O)[C@H](Cc1ccccc1)NC(=O)C[C@H](CC(C)C)NC(=O)CN)[C@@H](C)CC)[C@@H](C)CC)C(=O)N[C@H](CC(=O)N[C@@H](CCCCN)C(=O)N[C@H](CC(=O)N[C@@H](Cc1ccccc1)C(N)=O)CC(C)C)CC(C)C", "tested on": "NIH 3T3", "assay": "cytotoxicity", "measurement": "IC50", "result": "7 µg/mL"}
{"SMILES": "C[n+]1cccc2cc(/C=N/NC(=O)c3cc(C(=O)N/N=C/c4ccc5c(ccc[n+]5C)c4)ncn3)ccc21", "tested on": "hp2 hairpin duplex DNA", "assay": "FRET melting", "conditions": "1 µM, together with: ds26 10 µM", "measurement": "ΔTm", "result": "0.4 ± 0.3 °C"}
{"SMILES": "C=CC(=O)N1CCCC(n2c(=O)c3ncccc3n(Cc3ccc(Oc4ccccc4)cc3)c2=O)C1 (centres unmarked)", "tested on": "SU-DHL-1", "assay": "cell growth or viability, MTT", "conditions": "72 h", "measurement": "IC50", "result": "12 µM"}
{"SMILES": "CC[C@H](C)[C@H](NC(=O)[C@H](CC(=O)O)NC(=O)[C@H](Cc1ccccc1)NC(=O)[C@H]1CCC[C@@H]1NC(=O)CN)C(=O)N[C@H](CC(=O)N[C@@H](CCCCN)C(=O)N[C@@H](CCCCN)C(=O)N[C@H]1CCC[C@@H]1C(=O)N[C@@H](C)C(=O)N[C@@H](CCC(=O)O)C(=O)N[C@@H](CO)C(=O)N[C@H](CC(N)=O)Cc1ccccc1)[C@@H](C)CC", "tested on": "NIH 3T3", "assay": "cytotoxicity", "measurement": "IC50", "result": "106 µg/mL"}
{"SMILES": "CCNC(=S)NN=Cc1c2ccccc2cc2ccccc12.Cc1ccc(C(C)C)cc1.[Cl-].[Cl-].[Ru+2]", "tested on": "Caco-2", "assay": "cytotoxicity, MTS", "conditions": "24 h", "measurement": "IC50", "result": "256 ± 4 µM"}
{"SMILES": "CNS(=O)(=O)Nc1nccc(Cc2c(C)c3ccc(Oc4ncccc4F)cc3oc2=O)c1F", "tested on": "COLO 201", "assay": "cell viability", "conditions": "7 days", "measurement": "IC50", "result": "0.00408 µM"}
{"SMILES": "C=C(C)C(C)(C)CCC(C)C1CCC2(C)C3CCC4C(C)C(O)CCC45CC35CCC12C (centres unmarked)", "tested on": "MDA-MB-231 breast cancer", "assay": "cell viability, MTT", "test system": "DMEM with 10% FBS", "conditions": "48 h", "measurement": "IC50", "result": "> 200 µM"}
{"SMILES": "CCCON(Cc1ccc(C(=O)NO)cc1)C(=O)Nc1cc(C)cc(C)c1", "tested on": "MOLM-13", "assay": "cell viability", "conditions": "72 h", "measurement": "IC50", "result": "0.108 ± 0.014 µM"}
{"SMILES": "CC(C)(C)c1cnc(CSc2cnc(NC(=O)C3CCN(C(=O)CCCCCCN4Cc5cc6c(cc5C4)C(=O)N(C4CCC(=O)NC4=O)C6=O)CC3)s2)o1 (centres unmarked)", "tested on": "SK-UT-1", "assay": "cell growth or viability, MTT", "measurement": "IC50", "result": "0.515 µM"}
{"SMILES": "COC(=O)N1c2ccc3c(nc(Cc4ccccc4)n3[C@@H]3CCC[C@@H](C(=O)O)C3)c2CC[C@@H]1C", "tested on": "HCC1500", "assay": "cell growth or viability, ATP luminescence", "conditions": "10 days", "measurement": "IC50", "result": "0.08 µM"}
{"SMILES": "O=S(=O)(c1ccc2c(c1)OCO2)n1cc(CCCCN2CCC(=C(c3ccc(F)c(F)c3)c3ccc(F)c(F)c3)CC2)nn1", "tested on": "THP-1", "assay": "cell growth or viability, ATP luminescence", "conditions": "48 h", "measurement": "IC50", "result": "5.02 µM"}
{"SMILES": "Nc1ncc(-c2cc(-c3cnn(CC(F)(F)F)c3)ncc2F)nc1C(=O)NC1CNCC(F)C1 (centres unmarked)", "tested on": "DLD-1", "assay": "cell growth or viability", "measurement": "IC50", "result": "7.03 µM"}
{"SMILES": "C#CC[C@]1(O)C[C@H](C)N2CCc3cc(OCc4cc(C)cc(C)c4)c(OCc4cc(C)cc(C)c4)cc3[C@@H]2C1", "tested on": "ASPC1", "assay": "cell growth or viability, MTT", "measurement": "IC50", "result": "0.618 µM"}
{"SMILES": "CC(C)c1ccc(N(C)c2ccc3c(c2)OCC[C@H]3CNc2cnccc2C(=O)O)cc1", "tested on": "HLE", "assay": "cell growth or viability, ATP luminescence", "conditions": "7 days", "measurement": "IC50", "result": "0.0113 µM"}
{"SMILES": "CC(C)=CCc1c(OCC2OC2(C)C)ccc2ccc(=O)oc12 (centres unmarked)", "tested on": "COLO 205", "assay": "cell growth or viability, MTT", "conditions": "72 h", "measurement": "IC50", "result": "> 100 µM"}
{"SMILES": "CC[C@H](NC(=O)[C@H](CCCCN)NC(=O)[C@H]1CCC[C@@H]1NC(=O)[C@@H](NC(=O)[C@H](CCCCN)NC(=O)[C@H](CCCCN)NC(=O)C[C@@H](NC(=O)[C@@H](NC(=O)[C@H](CCCCN)NC(=O)[C@H](Cc1ccccc1)NC(=O)[C@H]1CCC[C@@H]1NC(=O)CN)[C@@H](C)CC)[C@@H](C)CC)[C@@H](C)CC)C(=O)N[C@@H](Cc1ccccc1)C(N)=O", "tested on": "NIH 3T3", "assay": "cytotoxicity", "measurement": "IC50", "result": "12.5 µg/mL"}
{"SMILES": "C[C@@H]1CC[C@]2(C(=O)O)CC[C@]3(C)C(=CCC4[C@@](C)(CCC(=O)O)C(C(C)(C)O)CC[C@]43C)C2[C@H]1CO (some centres unmarked)", "tested on": "RAW264.7", "assay": "NO release, inhibitor, Griess", "conditions": "LPS-stimulated", "measurement": "IC50", "result": "> 100 µM"}
{"SMILES": "NC(=O)c1ccc(-c2ccccc2Cl)c2c3c([nH]c12)CC[C@H](N)C3", "tested on": "B16F10", "assay": "cell proliferation", "conditions": "96 h", "measurement": "IC50", "result": "0.026 µM"}
{"SMILES": "CN1CC[C@@H](COc2cnc(C#N)cc2-c2ccn3nc(NC(=O)C4CC4)cc3c2)C1", "tested on": "C57BL/6 mouse BMDC", "assay": "TNF release", "conditions": "3 h, together with: LPS", "measurement": "IC50", "result": "0.26 µM"}
{"SMILES": "CC(=O)NCCOCCOCCOCCNC(=O)c1cc(C(=O)N2CCNCCNCCNCC2)c(O)c(C(=O)N2CCNCCNCCNCC2)c1", "tested on": "WI-38", "assay": "cell growth or viability, MTT", "conditions": "24 h", "measurement": "IC50", "result": "> 1000 µM"}
{"SMILES": "O=C(N/N=C/c1cc[n+](Cc2ccccc2)c2ccccc12)c1cncc(C(=O)N/N=C/c2cc[n+](Cc3ccccc3)c3ccccc23)n1", "tested on": "hp2 hairpin duplex DNA", "assay": "FRET melting", "conditions": "1 µM", "measurement": "ΔTm", "result": "1.4 ± 0.3 °C"}
{"SMILES": "O=C(Nc1cc(OCCN2CCCC2)c2ccccc2n1)c1cccc(C(=O)Nc2cc(OCCN3CCCC3)c3ccccc3n2)n1", "tested on": "WI-38", "assay": "cell growth or viability, ATP luminescence", "conditions": "72 h", "measurement": "IC50", "result": "3.1 µM"}
{"SMILES": "CC[C@H](C)[C@H](NC(=O)[C@H](CCCCN)NC(=O)[C@H]1CCC[C@@H]1NC(=O)[C@H](CC(C)C)NC(=O)CN)C(=O)N[C@H](CC(=O)N[C@@H](CCCCN)C(=O)N[C@@H](CCCCN)C(=O)N[C@H]1CCC[C@@H]1C(=O)N[C@@H](C)C(=O)N[C@@H](CCCCN)C(=O)N[C@@H](CO)CC(=O)N[C@@H](Cc1ccccc1)C(N)=O)[C@@H](C)CC", "tested on": "NIH 3T3", "assay": "cytotoxicity", "measurement": "IC50", "result": "119 µg/mL"}
{"SMILES": "CC(C)=CC1OC(C)(C)C2C=C3C(=O)C(Cl)=CC(O)C3C3C(O)C4OC4C(=O)C132 (centres unmarked)", "tested on": "PC-9", "assay": "cell growth or viability, MTS", "measurement": "IC50", "result": "1.27 µM"}
{"SMILES": "NCc1ccc2c(c1)CN(C1CCC(=O)NC1=O)C2=O (centres unmarked)", "tested on": "Huh-7", "assay": "cell growth or viability, ATP luminescence", "measurement": "IC50", "result": "0.965 µM"}
{"SMILES": "COc1cc(-c2cn(C)c(=O)c3cnccc23)c(OC)cc1Cn1ccnc1", "tested on": "EOL1", "assay": "cell growth or viability, ATP luminescence", "measurement": "IC50", "result": "1.25 µM"}
{"SMILES": "CC#CC#C/C=C1/O[C@@]2(CC[C@@H](O)CO2)[C@H](O)[C@H]1OC(=O)CC(C)C", "tested on": "RAW264.7", "assay": "NO release, inhibitor, Griess", "conditions": "LPS-stimulated", "measurement": "IC50", "result": "> 50 µM"}
{"SMILES": "CCn1cc(-c2cccc(C(F)(F)F)c2)c2sc(C(=N)NC3CCS(=O)(=O)CC3)cc2c1=O", "tested on": "MOLM-13", "assay": "cell growth or viability, ATP luminescence", "measurement": "IC50", "result": "5.97 µM"}
{"SMILES": "Cn1ncc(-c2ccc3c(=O)[nH]nc(CN)c3c2)c1-c1c(F)c(Cl)cc(OC2CC2)c1C#N", "tested on": "SW1088", "assay": "cell viability, inhibitor, CellTiter-Glo", "conditions": "120 h, baseline-subtracted", "measurement": "IC50", "result": "0.02 µM"}
{"note": "Some of these lines once more:"}
{"SMILES": "O=C(Nc1cc(OCCN2CCCC2)c2ccccc2n1)c1cccc(C(=O)Nc2cc(OCCN3CCCC3)c3ccccc3n2)n1", "tested on": "WI-38", "assay": "cell growth or viability, ATP luminescence", "conditions": "72 h", "measurement": "IC50", "result": "3.1 µM"}
{"SMILES": "CC[C@H](C)[C@H](NC(=O)[C@H](CCCCN)NC(=O)[C@H]1CCC[C@@H]1NC(=O)[C@H](CC(C)C)NC(=O)CN)C(=O)N[C@H](CC(=O)N[C@@H](CCCCN)C(=O)N[C@@H](CCCCN)C(=O)N[C@H]1CCC[C@@H]1C(=O)N[C@@H](C)C(=O)N[C@@H](CCCCN)C(=O)N[C@@H](CO)CC(=O)N[C@@H](Cc1ccccc1)C(N)=O)[C@@H](C)CC", "tested on": "NIH 3T3", "assay": "cytotoxicity", "measurement": "IC50", "result": "119 µg/mL"}
{"SMILES": "CC(C)=CC1OC(C)(C)C2C=C3C(=O)C(Cl)=CC(O)C3C3C(O)C4OC4C(=O)C132 (centres unmarked)", "tested on": "PC-9", "assay": "cell growth or viability, MTS", "measurement": "IC50", "result": "1.27 µM"}
